Results gathered from unrelated publications.
“And” joins repeats or separate records; there may be more than shown. ± gives the spread as reported.
Voltage-dependent P/Q-type calcium channel subunit alpha-1A: Voltage-dependent P/Q-type calcium channel subunit alpha-1A (Homo sapiens, UniProt O00555)
UCHL1: Ubiquitin carboxyl-terminal hydrolase isozyme L1 (UCHL1, Homo sapiens, UniProt P09936)
TOP2B: DNA topoisomerase 2-beta (TOP2B, Homo sapiens, UniProt Q02880)

The residence time of `COc1cc(C)[nH]c(=O)c1CN1CCc2c(Cl)cc([C@H](OC)C3COC3)c(Cl)c2C1=O` is reported as 13 h (EZH2 (Homo sapiens, UniProt Q15910); binding; activated PRC2 with H3K27me3 peptide).
`CC(=O)N[C@@H](CC(C)C)C(=O)N[C@@H](CC(=O)O)C(=O)N1CCC[C@H]1C(=O)N1CCC[C@H]1C(=O)N[C@@H](CC(C)C)C(=O)N[C@@H](Cc1c[nH]cn1)C(=O)N[C@@H](CO)C(=O)N[C@H](C(=O)N[C@@H](C)C(N)=O)[C@@H](C)OP(=O)(O)O` has a binding enthalpy of -15.4 ± 0.1 kcal/mol (PLK1 (Homo sapiens, UniProt P53350); polo-box domain binding, isothermal titration calorimetry; concentration not given, 25 °C).
For `N[C@@H]1C[C@@]1(F)c1ccccc1`, the kcat was 0.12 ± 0.02 s⁻¹ (tyramine oxidase (Arthrobacter sp.); substrate, Lineweaver-Burk plot).
With `NCCCS(=O)(=O)O` the fraction bound was 0.000277 (SLC6A6 (Homo sapiens, UniProt P31641, Y138A); binding, microscale thermophoresis; 30.5 nM, fitted curve; higher = more binding).
With `COc1cc(Nc2ncc3c(n2)-c2ccc(Cl)cc2C(c2c(F)cccc2OC)=NC3)ccc1C(=O)O` the remaining activity was 105% (IKBKB; kinase activity; 1 µM).
For `COc1cc2c(cc1OC)C(=O)C(CC1CCN(Cc3ccccc3)CC1)C2` (stereo not drawn), the inhibition was 0% (Voltage-dependent P/Q-type calcium channel subunit alpha-1A; ion current, antagonist; HEK293; 3 µM).
With `N#CC(=Cc1ccc(C#N)cc1)C(=O)N1CCCC1` the labelling was 13.7% (UCHL1; covalent, intact protein LC-MS; 12.5 µM).
For `Nc1ncnc2c1ncn2[C@@H]1O[C@H](COP(=O)(O)CP(=O)(O)OP(=O)(O)O)[C@@H](O)[C@H]1O`, the specific binding was 137 CCPM and 124 CCPM and 163 CCPM (P2X purinoceptor 1 (P2RX1, Homo sapiens, UniProt P51575, E122A); saturation binding; HEK293; 13 nM).
`CCN(c1ccc(C(=O)CCl)cc1)S(C)(=O)=O` gave a labelling of 34.2% (UCHL1; covalent, intact protein LC-MS; 12.5 µM).
For `CC1(c2cc(F)ccc2F)CC1NC(=O)NCC1(C(=O)O)CCCC1` (stereo not drawn), the remaining activity was 81% (malate dehydrogenase; enzyme activity, inhibitor; 200 µM, pH 7.0, 1% DMSO, aggregation counter-screen).
The current density of `O=C(O)c1ccc([N+](=O)[O-])cc1` is reported as 66.7 pA/pF and 59.6 pA/pF and 36.6 pA/pF and 78.5 pA/pF and 36.2 pA/pF and 74.2 pA/pF and 108 pA/pF (BEST1 (Homo sapiens, UniProt O76090); whole-cell patch clamp; HEK293 transiently expressing channel; concentration not given, membrane potential 60 mV).
For `CC[C@@H]1[C@H](F)C(=O)N[C@@H]1COc1nccc2cc(C(N)=O)c(OC)cc12`, the inhibition was 21.7% (EPHA7 (Homo sapiens, UniProt Q15375); ATP probe binding, KiNativ profiling, refers to: activation loop probe site; THP-1 cell lysate; 0.04 mM).
With `Cc1ccnc([18F])c1-c1cccc(N2C[C@H](N3CCN(C(=O)c4nccs4)CC3)CC2=O)c1` the Bmax was 120 nmol/g (Monoglyceride lipase (Macaca mulatta, UniProt H9ESL3); PET Scatchard plot; rhesus monkey, brain FCX; baseline).
`NCCNC(=O)c1ccc(Cl)cn1` has an IC30 of over 30 µM (Voltage-dependent P/Q-type calcium channel subunit alpha-1A; ion current, antagonist, automated patch clamp).
`C=CC(=O)N1CCC(C(=O)NCC(=O)N2CCN(c3nc(-c4cnc(N)nc4C(F)F)nc(N4CCOCC4)n3)CC2)CC1` has a remaining binding of 95% (MET (Homo sapiens, UniProt P08581, M1250T); KINOMEscan; 1 µM).
`CCN1CCC[C@H]1CNC(=O)c1c(O)c(Cl)cc(Cl)c1OC`: “log2 fold change” 0.251 (Probable G-protein coupled receptor 160 (GPR160, Homo sapiens, UniProt Q9UJ42); β-arrestin recruitment, TANGO luminescence, refers to: GPR160; concentration not given; baseline: basal luminescence).
The IC30 of `CC[C@@H]1C(=O)OC[C@@H]1Cc1cncn1C.Cl` is reported as over 30 µM (Voltage-dependent P/Q-type calcium channel subunit alpha-1A; ion current, antagonist, automated patch clamp).
For `O=C(Nc1cccc(-c2nnco2)c1)N1CCSSCC1`, the labelling was 18.8% (UCHL1; covalent, intact protein LC-MS; 12.5 µM).
`c1coc(-c2n[nH]cc2-c2ccnc3ccccc23)c1`: “log2 fold change” -0.19 (Serine/threonine-protein kinase HSL1 (HSL1, Candida albicans, UniProt Q5AG71); kinase binding, MIB/MS competition; Candida albicans lysate; 1 µM; baseline: DMSO, negative = stronger binding).
`N[C@@H](CCC(=O)O)C(=O)O` has a median current of 8.9 µA (glc-2 (Caenorhabditis elegans, UniProt Q17328); two-electrode voltage clamp; Xenopus laevis oocytes).
`O=C(Nc1ccccc1Oc1nc2ccccc2n2cnnc12)c1cccs1` gave a binding stoichiometry of 1.05 (Catenin beta-1, residues 141-305 (CTNNB1, Homo sapiens, UniProt P35222); ITC; concentration not given, 25 °C).
For `CC(Cl)C(=O)N1CCN(CC(F)(F)C(F)F)CC1` (stereo not drawn), the labelling was 12.8% (UCHL1; covalent, intact protein LC-MS; 12.5 µM).
Under “highest concentration tested”, `Cc1cn(C2CCN(Cc3cncc(Oc4cc(Cl)cc(Cl)c4)c3)CC2)c(=O)[nH]c1=O` is recorded as over 31 µM (Thymidylate kinase (DTYMK, Homo sapiens, UniProt P23919); enzyme activity, inhibitor; no inhibition observed).
For `O=c1nc(SCc2cc(F)cc(C(F)(F)F)c2)nc(SCc2ccc3sccc3c2)[nH]1`, the decatenated DNA was 0% (TOP2B; decatenation; 31.25 µM, replicate 2).
For `Nc1ncnc2c1ncn2[C@@H]1O[C@H](COP(=O)(O)OP(=O)(O)OP(=O)(O)O)[C@@H](O)[C@H]1O`, the peak current was 6310 nA (P2X purinoceptor 1 (P2RX1, Homo sapiens, UniProt P51575); ion current, agonist, two-electrode voltage clamp; Xenopus oocytes; 100 or 300 µM, first maximal application).
The Km of `CC(C)CCC[C@@H](C)[C@H]1CC[C@@H]2[C@@H]1CC[C@H]1[C@H]2CC=C2C[C@@H](O)CC[C@@H]21` is reported as 4.7 µM (hh, HhC autoprocessing domain (Drosophila melanogaster, UniProt Q02936); substrate, FRET reporter autoprocessing; C-H-Y reporter substrate).
`COc1cccc2c1C(=O)c1c(O)c3c(c(O)c1C2=O)C[C@@](O)(C(=O)CO)C[C@@H]3O[C@H]1C[C@H](N)[C@H](O)[C@H](C)O1` — result for “geometric mean inhibition”: 75.9% (DNA topoisomerase I (calf thymus); enzyme activity, inhibitor; MDA-MB-231; 50, 100, 500 ppm, 30 min, 37 °C).
`CC/C=C(\C)C=O` gave a conversion of 15% (Uncharacterized protein PH0856 (Pyrococcus horikoshii, UniProt O58586); substrate; pH 8, 30 °C, aerobic, added: NADH).
The luminescence of `CCOC(=O)c1c(NC(=O)CNC(C)C)sc2c1CCCCC2` is reported as 65.3 ± 0.7% (Glycogen synthase kinase-3 beta, with Nav1.6 (GSK3B, Homo sapiens, UniProt P49841); protein assembly, split-luciferase complementation; HEK293; 50 µM; baseline: DMSO).
`O=C(O)c1cc(N2C(=O)C(O)=C(Cc3ccccc3)C2c2ccc([N+](=O)[O-])cc2)ccc1O` (stereo not drawn) has an EC1.2 of 175 µM (ESR1/YWHAZ, with 14-3-3 zeta (Homo sapiens, UniProt P03372+P63104); 14-3-3ζ/ERα peptide binding, stabiliser, fluorescence polarization).
For `C=CCNC(=O)C(C#N)=Cc1cccc(O)c1`, the labelling was 9.18% (UCHL1; covalent, intact protein LC-MS; 12.5 µM).
For `CN(C)CCNc1c2c(c(C#N)c3nc4ccccc4n13)CCCC2`, the inhibition was -11.8% (Trypanosoma cruzi; reporter translation, Renilla luciferase mRNA translation; cell-free extract; 40 µM; baseline: DMSO).
For `Cc1noc(CC2(NS(=O)(=O)c3cccc(Cl)c3O)CC2)n1`, the remaining activity was 108% (malate dehydrogenase; enzyme activity, inhibitor; 200 µM, pH 7.0, 1% DMSO, aggregation counter-screen).
`Cc1cc(-c2ccnc3[nH]cc(F)c23)cc(F)c1[C@@]1(O)[C@H](C)CN(C2CCS(=O)(=O)CC2)C[C@@H]1C` gave an inhibition of 48.2% (PIK3C3 (Homo sapiens, UniProt Q8NEB9); ATP probe binding, KiNativ, refers to: ATP site; HEK293T cell lysate; 1 µM).
For `CC(=O)Oc1ccccc1C(=O)O`, the inhibition was 0% (Voltage-dependent P/Q-type calcium channel subunit alpha-1A; ion current, antagonist; HEK293; 30 µM).
For `C[C@H](CCC(C)(C)O)[C@H]1CC[C@H]2[C@@H]3CC=C4C[C@@](C)(O)CC[C@]4(C)[C@H]3CC[C@]12C`, the current potentiation was 123 ± 3.3% (Glutamate NMDA receptor; GRIN1/GRIN2A (Homo sapiens, UniProt Q05586+Q12879); ion current, positive allosteric modulator, two-electrode voltage clamp; Xenopus oocytes; 10 µM, wild type, added: 1000 µM glutamate, glycine; baseline: absence of compound).
The remaining activity of `CC(Cc1c(Cl)cccc1Cl)NS(=O)(=O)c1ccoc1C(=O)O` (stereo not drawn) is reported as 76% (malate dehydrogenase; enzyme activity, inhibitor; 200 µM, pH 7.0, 1% DMSO, aggregation counter-screen).
`Cc1nc(CSc2nc(SCc3ccc(C(C)C)cc3)nc(=O)[nH]2)cs1` has a decatenated DNA of 0% (TOP2B; decatenation; 125 µM, replicate 2).
With `Cc1c(Cc2ccccc2)c(NCCN(C)C)n2c(nc3ccccc32)c1C#N` the inhibition was -7.8% (Trypanosoma cruzi; reporter translation, Renilla luciferase mRNA translation; cell-free extract; 40 µM; baseline: DMSO).
For `O=C(c1ccc(C(=O)N2CCC(N3CCCC3)CC2)c(Nc2ccccc2)c1)N1CCC(N2CCCC2)CC1`, the diffusion coefficient was 0.051 µm2/s (Lethal(3)malignant brain tumor-like protein 3 (Homo sapiens, UniProt Q96JM7); FRAP; human cells; 1 µM).
With `CCCCCCCC(=O)c1cc(OC)c(OC)c(OC)c1CC(=O)OCC` the activation was 0.61 fold (THRA (Homo sapiens, UniProt P10827); reporter gene, Gal4 hybrid reporter; 10 µM; baseline: vehicle).
`Cn1ncc(S(=O)(=O)NC2CCSc3c(F)cccc32)c1C(=O)O` (stereo not drawn) has a remaining activity of 83% (malate dehydrogenase; enzyme activity, inhibitor; 200 µM, pH 7.0, 1% DMSO, aggregation counter-screen).
`C=CC(=O)N1CCC(COCC(=O)N2CCN(c3nc(-c4cnc(N)nc4C(F)F)nc(N4CCOC[C@@H]4C)n3)CC2)CC1` gave a remaining binding of 94% (MET (Homo sapiens, UniProt P08581); KINOMEscan; 1 µM; baseline: DMSO control).
With `Nc1nc2c(ncn2[C@@H]2O[C@H](COP(=O)(O)O)[C@@H](O)[C@H]2O)c(=O)[nH]1` the reaction rate was 0.996 s⁻¹ and 0.696 s⁻¹ and 0.62 s⁻¹ (GUK1 (Homo sapiens, UniProt Q16774, R148A); enzyme activity, NADH-coupled; 125 µM).
`Cc1cc(Oc2ncccc2CN2CCN(Cc3ccc(F)cc3)CC2)ccc1-c1c(C)c(=O)[nH]c(=O)n1C` has a selectivity ratio of 11 (ADRA2C (Homo sapiens, UniProt P18825); binding, radioligand binding; added: [3H]rauwolscine; baseline: Ki alpha2A over Ki alpha2C).
